Values quoted from earlier work as cited in several papers.

CC1=NN(c2nc(-c3ccc(Cl)cc3)cs2)C(c2ccc(F)cc2)C1 (stereo not shown)  IC50 (MCF7; cytotoxicity): 0.07 µM
O=C(/C=C/c1ccc(O)c(O)c1)NCCc1ccc(O)c(O)c1  IC50 (RAW264.7; cytotoxicity; 24 h): > 100 µM
O=C1/C(=C/c2ccc(B(O)O)cc2)CC/C1=C\c1ccc(B(O)O)cc1  IC50 (HER2-expressing breast cancer cells; cytotoxicity): > 200 µM
O=C(Cn1cc(Cn2c(=O)c(Cc3ccccc3)nc3ccccc32)nn1)N/N=C/c1cccnc1  IC50 (HCT-116; cytotoxicity): 2.2 µM
CC1=C(Cn2c3cccc(=O)c-3nc3ccccc32)CCC(C)(C)C1  IC50 (P388 mouse leukaemia; cytotoxicity): 0.09 µg/mL
COc1cc(/C=C/C(=O)NCCc2ccc(O)c(OC)c2)ccc1O  IC50 (RAW264.7; cytotoxicity; 24 h): > 100 µM
CC(C)C[C@@H](NC(=O)[C@H](C)NC(=O)CNC(=O)[C@@H](NC=O)C(C)C)C(=O)N[C@@H](C)C(=O)N[C@@H](C(=O)N[C@H](C(=O)N[C@@H](C(=O)N[C@@H](Cc1c[nH]c2ccccc12)C(=O)N[C@H](CC(C)C)C(=O)N[C@@H](Cc1c[nH]c2ccccc12)C(=O)N[C@H](CC(C)C)C(=O)N[C@@H](Cc1c[nH]c2ccccc12)C(=O)N[C@H](CC(C)C)C(=O)N[C@@H](Cc1c[nH]c2ccccc12)C(=O)NCCO)C(C)C)C(C)C)C(C)C  IC50 (P388; cytotoxicity): 0.0058 µM
CCC1=C(O)c2c(oc(-c3cc4ccccc4s3)cc2=O)C(CC)(CC)C1=O  IC50 (KB-VIN (P-gp-overexpressing MDR); cell growth, SRB): 9.9 µM
COc1cc(/C=C/C(=O)NCCc2ccccc2)ccc1O  IC50 (RAW264.7; cytotoxicity; 24 h): > 100 µM
CC1=C(Cn2c3ccc(Br)c(=O)c-3nc3ccccc32)CCC(C)(C)C1  IC50 (HCT-116; cytotoxicity): 0.049 µM
COc1cc(O)c(-c2ccc(OC)c3c(O)cc(C)c(-c4cc(-c5c(O)cc(OC)c6c5C[C@H](C)N(C)[C@@H]6C)c5cc(C)cc(OC)c5c4O)c23)c2c1[C@@H](C)N(C)[C@H](C)C2  IC50 (rat L6 myoblasts; cytotoxicity): 1.37 µM
CCC1=C(O)c2c(oc(-c3ccc(OC)c4ccccc34)cc2=O)C(CC)(CC)C1=O  IC50 (KB-VIN (P-gp-overexpressing MDR); cell growth, SRB): 1.56 µM
FC(F)(F)c1ccc2nc3c4cccnc4c4ncccc4c3nc2c1.[Cl-].[Cl-].[Ru+2].c1ccncc1.c1ccncc1.c1ccncc1.c1ccncc1  IC50 (L-O2; cytotoxicity; dark): > 200 µM

Repeated from above:
O=C1/C(=C/c2ccc(B(O)O)cc2)CC/C1=C\c1ccc(B(O)O)cc1  IC50 (HER2-expressing breast cancer cells; cytotoxicity): > 200 µM
